# Measured values pooled from the literature.
# A part holds a random share of what one study measured. Changes are numbered by the printed parent chain.

# Sample 1
# Variant: S9E
# Target: ABI1, truncated, D143A, DHFR fusion (Arabidopsis thaliana)
# Technique: DHFR PCA, deep sequencing
# Sample: yeast
# Setting: methotrexate growth selection, single substitutions
# Reference: wild-type fitted maximum
# Direction: higher = stronger binding
# Starting sequence: PYL1, truncated, DHFR fusion (Arabidopsis thaliana); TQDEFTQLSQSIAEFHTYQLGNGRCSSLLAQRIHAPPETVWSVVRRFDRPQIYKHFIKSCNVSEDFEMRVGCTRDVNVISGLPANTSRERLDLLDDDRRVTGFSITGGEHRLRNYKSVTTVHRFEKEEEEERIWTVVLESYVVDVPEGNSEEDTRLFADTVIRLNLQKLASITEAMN
conditions,relative binding score [%]
together with: (+)-ABA 1.4 µM,71.3
together with: (+)-ABA 710 µM,108
together with: (+)-ABA 0.11 µM,47
together with: (+)-ABA 0.032 µM,38.1
together with: (+)-ABA 0.39 µM,54.3
together with: (+)-ABA 17 µM,85.7

# Sample 2
# Target: RNA binding protein fox-1 homolog 2, RRM domain, GST-SBP tag (RBFOX2, Homo sapiens, UniProt O43251-10, residues 100-194)
# Technique: RNA Bind-n-Seq
# Molecule type: RNA
# Sample: in vitro
# Concentration: 365 nM
# Setting: natural RNA segment, single round, ends assumed
# Reference: no-protein control
# Direction: higher = stronger binding
# All sequences stand within: GGGAGUUCUACAGUCCGACGAUC … UGGAAUUCUCGGGUGCCAA
# Target sequence (chain): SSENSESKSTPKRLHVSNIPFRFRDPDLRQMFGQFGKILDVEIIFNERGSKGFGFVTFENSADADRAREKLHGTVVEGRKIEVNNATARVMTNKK
Oligonucleotide,RBNS enrichment (R)
CCAGUGAGUGAGCAAACCACUUUAGGCCAGGAGAAUUACAUAUUCUCUAGAGGCCAAGCAUCUGAUGAAAAGAGCCUGCCUAGAGAUUUUAUUCCGGCAGCACAUAAACA,0.495
AGCUGUCUAAGGUCUCCCGAGGCCUGCUGGUGGUAAAGAAACUGACCUUUUAGGCAGUUUUUCUGCAUUGAUUUCAUGAAAGAAGCUAUACAUUAGCUAAUACUAACCAC,0.578
UGAUUAUGCAACUAAGUAGGCCUCCAGAGCCUCUCUAGUGGCAGAGCAGCUCACACUCCCUCCGCUGGGAACGAUGGCUUCUGCCUAGUACCUAUCCUUGUGUUUCUGAU,0.244
UCUUAGUUCUAAAGAAUCUUGGGUUAUUUUGUAGCGGUGCCAGUAUUUCAGUAGAUGGGAUUUCAGCCAAGUAGGUUCCCCUGUAACCUCCUACAAAGCAAUAUUCCAAA,0.848
AAAUUAGGACAUUUAGUAGUGAGGCACUGGUACCUUCUCCCUGCUCCUGUUAUAGAGGAGGCUACGUAGACCAAAAUGAGAAAAGGAAUGUGGCCACAGAAUGUAACCGU,1.43
GGGCAGAACAUAUGGGUUAAAUCUCGGUAGAGAGUUUCCCUCAUCCUCUAUCCGUAAGUGUCCUUCCAUGCAAGGUCCCACUCUAGGUGAUAGACAGGGACCCCUUCUAC,0.207
GGCAUUUACUAGCCAGAGCUCUGAAAGGCAGUGCUGUCUGUUUCUUGUACUGGGACCAAAGUAAAAAUCCAAGCACAUUCCCCUUGCAGUUAGGGGAGGCCCUACUGCCU,0.374
GAGAAGGUGGCGCUGCCAGGUGCCCGGGUCUAUUGGAGGCGCCCCAUCUCAGACUUCCUAACACAGCCUGUGUGGAAGGCAGAACAAAGAAUGCAUGCCCAGUCAGAAAU,22.3

# Sample 3
# Target: Protein max, full length (MAX, Homo sapiens, UniProt P61244-2, residues 1-151)
# Technique: protein-binding microarray
# Molecule type: double-stranded DNA, one strand shown
# Sample: in vitro
# Concentration: not given
# Setting: k-mer, scored over probes, only values ≥0.25
# Direction: higher = stronger binding
Oligonucleotide,E-score
AATGCGTG,0.31
AAAACACG,0.362
ACGCGGGC,0.308
CCCCGTGA,0.351
AACGTGTC,0.4
ATCATGCG,0.412
CGTGACGC,0.348
ACGCGCCA,0.29

# Further values, each from its own experiment
Structure (SMILES),system,conditions,measurement,value
O=C(CNC(=O)Cc1ccccc1)NCC(=O)OCc1cccc(C(=O)c2ccccc2)c1,"human, microsomes or S9","2 µM, 0.5 h",remaining compound,7.74%

# Excerpt of the above (sample 1):
conditions,relative binding score [%]
together with: (+)-ABA 1.4 µM,71.3
together with: (+)-ABA 710 µM,108
together with: (+)-ABA 0.11 µM,47
together with: (+)-ABA 0.032 µM,38.1
